Assay results gathered from unrelated publications.
Every numbered part comes from another study and shows a few of its results, in no order. Substitutions count along the parent as printed.

Series 1 — technique: RNA Bind-n-Seq; form: RNA; matrix: in vitro; tested at: 365 nM; relative to: no-protein control; direction: higher = stronger binding
Target: RNA binding protein fox-1 homolog 2, RRM domain, GST-SBP tag (RBFOX2, Homo sapiens, UniProt O43251-10, residues 100-194)
Setting: natural RNA segment, single round, ends assumed
Shared flanks, not repeated: GGGAGUUCUACAGUCCGACGAUC … UGGAAUUCUCGGGUGCCAA
Construct (chain): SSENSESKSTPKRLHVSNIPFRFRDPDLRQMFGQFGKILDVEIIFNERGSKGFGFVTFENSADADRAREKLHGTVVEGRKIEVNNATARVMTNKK
Strand	RBNS enrichment (R)
GAAUGCUGUUCCAUUGUAUGGCUGUGUCAGAUUUUGUUUGUUCAUUCACCAGUUGAUAGACAUGUAGAUUGUUUUCAUGCUGCUGUGACCAUUUGUGUACAAGUGUUUGU	0.424
GACGGCACAAGGUUUUCUGUAGGAAAGCUGCCAUUGCCCCGGCCCCUUUUCUUCCUUUGUCCCGUUGUCGAGGUUUUUUCAAAUAGCGUGUUGUUCAGUAUGCAAAUCAA	0.492
ACACAGAACAGUGAAGGCUACAGGUCAUCAUCAAAGUCCUCUCCGGUUGUAAAGAGGUUGUGCAGUUGCAAGGGUGGAGCCUUCUGGGUCCCUUGAGCCAAAGGCCUACC	0.377
CAUCUUUAUUUUGUAAUGUGUUAAAUAAGCAUUAUAUGCUGGUAGAAUCUAGUUUAAUUGUUUCAGGUAGAAAGUAUUCUUUUGAGUUUCCAUUUUGAAUGUGUUUGGAC	3.57
UUAAUAUCAGUAGCCUAAAUUUAGGAGCACUAUAGUUUUAAAAAUACUUAAUUGGCUACUUUAUUUAACAAUGUUUUAGGGAUGUCGUUCAGUAUCUUUUCCAGUGUUUG	0.525
GGACAAAGUUGGGUUGAUAGGAUAUUUUAGAUUCAUUUUACCUUUGACAAGGGCAGGCCUUGAAUUGGGAGCAGCAGCCACCUGGCCUCACUCUGGCCACAGGUGACACU	0.648
GCAAGCUCAGGGAAGGAUCAUUUCUGGUGAUAAUUCCAUUCACUUUGCACUUUGAUGGGCAUUAAAAAAAAUAGCCCUCACAAGAUAGUAACCUCAAAUUCCUGUUCUUG	0.248
CACCACCAGACACGUGCCCACAUCUGUCCCACUCUGGUCCUCGGGGGCCACUCCACCCUUAGGGAGCACAUGAAGAAGCUCCCUAAGAAGUUCUGCUCCUUAGCCAUCCU	0.452
GUGGGUGAGGGUCUGCCUGCCUGUUUCUGUCUGGGUGUCUGAGUUCCAAAAAAUGUGUGUUGUUUGUUCCUCCUCAUCCUCUUCUGAGACUGUUGUUUUUUUAGAGCUUG	1.92
AGCUCAGCUCGAGUCUUCAGGGCUGGGCUCCUAGGCUGCCCAUCCUACUUCUACCCUCACUGGCCUCCAGUGGGAUUCACUCCUGCCCUGCCCCCACCUUCCCAGUCCCA	0.359
AAUCAUAGCAUCCCAUGGUUUUGUGGUAUCUGGGUUUGUGUAAUGUUGUUGACACCUGUAUUUAAUGACACCUGCACACCUUUCAAAUAAAAACAUGUUUUUCUUCAAGU	0.596
UGCCUGCCCCCUCCCAGCAGCCAGCCCUGCCAAAGUUGCAUUAUCUUUGGCCAAGGCUGGGCCUGACGGUUAUGAUUUCAGCCCUGGGCCUGCAGGAGAGGCUGAGACCA	6.19

Series 2 — target: CCND1, cyclin fold, Cln2 fusion (human); technique: yeast growth competition, sequencing; matrix: yeast; setting: weak parent motif; relative to: not given; direction: higher = stronger binding
Starting sequence: ORC1 docking peptide (human); PRARKRLELGNLG
Substitution	normalised enrichment score
PRARKRLILGNLG [E8I]	0.145
PRARRRLEFGNLG [K5R L9F]	2.44
PRARKLLELGNLG [R6L]	0.523
PRARKRLELGNEG [L12E]	-0.0614
PRARKRLELRNLG [G10R]	-0.376
PRARKRLELGWLG [N11W]	0.366
PRARKVLELGNLG [R6V]	0.0699
PRARKRLELGNNG [L12N]	-0.0392
PRARKRLELGDLG [N11D]	0.0724
PRARKREELGNLG [L7E]	-0.0974
PRARKRLELHNLG [G10H]	-0.439
PRARKRRELGNLG [L7R]	0.231
PRAYKRLELGNLG [R4Y]	0.22
PRARKRLELGNLV [G13V]	-0.401
PRARKGLELGNLG [R6G]	0.498
PRARKHLELGNLG [R6H]	-0.0337
PDARKRLELGNLG [R2D]	0.208
PRIRKRLELGNLG [A3I]	-0.401
PRARDRLELGNLG [K5D]	-0.364

Series 3 — technique: RNA Bind-n-Seq; form: RNA; matrix: in vitro; tested at: not given; relative to: input RNA pool; direction: higher = stronger binding
Target: RING finger protein unkempt homolog, zinc fingers 1-6, GST-SBP tag (UNK, Homo sapiens, UniProt Q9C0B0, residues 30-357)
Setting: RNA with constant flanks, human and mouse sites, ends assumed
Shared flanks, not repeated: GGGAGUUCUACAGUCCGACGAUC … CAACAGAGGAUUGAGCAUCA
Residues (chain): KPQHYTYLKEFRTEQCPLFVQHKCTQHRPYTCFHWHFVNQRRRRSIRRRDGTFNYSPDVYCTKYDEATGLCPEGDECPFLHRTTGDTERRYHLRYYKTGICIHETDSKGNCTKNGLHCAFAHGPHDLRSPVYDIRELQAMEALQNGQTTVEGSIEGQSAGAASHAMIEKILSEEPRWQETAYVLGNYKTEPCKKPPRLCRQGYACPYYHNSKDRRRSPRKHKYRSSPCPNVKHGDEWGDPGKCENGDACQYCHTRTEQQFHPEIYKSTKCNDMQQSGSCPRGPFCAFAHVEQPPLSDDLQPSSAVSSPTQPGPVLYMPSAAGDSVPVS
Strand	bound/input enrichment
AGCAAAUUCUGUGAAUAUGAAAGGAGAUUUCAGAUGACUUUCCAGUUCAGCAUAUGGGACAAAUUUCGGGACUUGGAAAACUUGCCAGCUACGAAUUUCUCUAAUUUGGUUCAUCUGGUG	0.276 ratio
UUUGUUUUGUUUGGGGGCCUUUUUUUUUUCCCUAGAAGAUAUGGAGAGCCUUCUUGUCCAACUAGAUUGUUCACCAUCAGCCUGGAACUCUCACUGAACCACCACAGAAAUCGUGGCGAU	0.259 ratio
AUGGAACAAGGAAAAUAAGGCCUAAGCCAGCAUCCCCAGGUUGCCACAGCCCAUCCUUCAUAGCAGGAAAAUAAGGCCUAAGCCAGCAUCCCCAGGUUGCCACAGCCCAUCCUUCAAGCA	0.0899 ratio
CGGGUCGGAGACUACGUUUAUUUUGAGAAUUCCUCCAGCAACCCGUACCUCAUCAGACGGAUAGAGGAGCUCAACAAGACUGCAAGUGGCAAUGUGGAAGCAAAAGUCGUCUGCUUUUAC	0.178 ratio
AUGAAAAUGUUAUUUAAUCUUUGUCUCUGUAUUUUGAUACUUGAAUGACUUUCCCUUUUGUUUUACUGUAUAUAAAAUUGUUAAUCUGUCUGAUUUUGUCUGAAUUAUAAACACUUUGAG	0.178 ratio
AUCUUACUCACAGAACCUCCUAUGAACCCAACCAAAAACAGAGAGAAGAUUGUAGAGGUAAUGUUUGAAACUUACCAGUUUUCCGGUGUAUAUGUAGCCAUCCAGGCAGUUCUGACUUUG	0.327 ratio
CAGCAGAGGCUGAUCUUUGCAGGCAAGCAGCUGGAAGAUGGCCGCACCCUGUCAGACUACAACAUCCAGAAAGAGUCCACCCUGCACCUGGUCCUUCGCCUCAGAGGUGGCAUGCAGAUC	0.0661 ratio
AACAAUCUUCUGGAUGGUGGUAAGGUCUUUUUUAGCAAACACAGUAAAGAGCUUAUUUCAUUUCUGAUGCUUUCAAGGGCAUAUUCCAAAGUAUCACAGAUGUCAAAUAGAAUAUGCUAU	0.543 ratio
GGGCUGCUGUGCGAGUUCAGUGAUCGAAGGCUUUUGGACAAGUGGGUGGAGCUGAGGACCACAGUGGCCCACUGCAUCUCUGUGAGCCAAGACUACAUCUUCUGUGGCUGUGCUGAUGGC	0.143 ratio
AACUUGGCUGCUGUCUUGGAGAGGCUGGUGGACAUAAAGAAAGGGAAUACUUUGCUCUUGCAGCAUCUGAAGAGGAUCAUCUCUGACCUGUGUAAACUCUACAACCUCCCUCAGCAUCCU	0.104 ratio
AGUUGUGUGGCCCACAAUGCCCUGGAGUGUGCACGAGCCAUAUAUGCCUAUGCCCUACAAGUCUUCCCCAGCAAGAAAAGUGUGUGGUUACGAGCUGCCUACUUUGAGAAGAAUCAUGGU	0.157 ratio

Series 4 — technique: universal PBM; form: double-stranded DNA, one strand shown; matrix: in vitro; tested at: not given; direction: higher = stronger binding
Target: Sal-like protein 4, full length isoform B (SALL4, Homo sapiens, UniProt Q9UJQ4-2, residues 1-616)
Setting: 8-mer, flanks averaged, mean of replicates
Strand	E-score
TACTCAAA	0.144
AGTGTGCA	0.0976
ACGGCCCA	-0.259
ACCTGACA	-0.117
AAATCGCT	0.0343
AAGAGATA	0.167
GGCCCCTA	-0.331
CACTCCAC	-0.114
GATGCCGC	-0.367
GTCACGAC	0.093
GCTGCGCC	-0.349
GCGCAAGA	0.00952
AAAGACGT	0.0473
CTAGCATC	-0.137
CGCGGGAA	-0.186
CAACCAGA	-0.0782
TTGCACAA	0.0936
ATTCTTAC	0.233
ACCACGCC	-0.191
AGGTACCT	-0.147

Series 5 — technique: protein binding microarray; form: double-stranded DNA, one strand shown; matrix: in vitro; tested at: not given; relative to: not given; direction: higher = stronger binding
Target: Histone acetyltransferase KAT6A, winged helix 1, GST fusion (KAT6A, Homo sapiens, UniProt Q92794, residues 1-85)
Setting: 8-mer, flanks averaged, mean of 2 arrays, mostly near background
Target sequence (chain): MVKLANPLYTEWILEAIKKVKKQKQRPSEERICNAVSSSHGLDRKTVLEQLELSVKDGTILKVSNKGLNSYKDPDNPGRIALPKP
Strand	E-score
CTGCCATA	0.0797
CCTATTGC	0.0122
GATGGCAC	0.0209
AACCTAGG	-0.186
CACTGCTA	-0.141
CATCCTAA	-0.123
ACCTCATA	-0.239
AAAGTTCA	-0.208
AAGGCACA	-0.19
GTCATATA	-0.141
GCGGAGAA	0.136
ACTTATCA	-0.209
CGGTTGTA	0.145
CACCAATG	-0.0893
GAAAGGAC	-0.0536
ACCGGCGG	0.471
GCCAGTCA	-0.155
AATGAGGT	-0.287
ACGAAAAA	-0.234

Excerpt of the above (series 5):
Strand	E-score
AAGGCACA	-0.19
CCTATTGC	0.0122
ACGAAAAA	-0.234
AACCTAGG	-0.186
GCGGAGAA	0.136
GCCAGTCA	-0.155
CTGCCATA	0.0797
GATGGCAC	0.0209
ACCGGCGG	0.471
AAAGTTCA	-0.208
CGGTTGTA	0.145
GAAAGGAC	-0.0536
